{"data": "Experimental data of several laboratories", "cell line": "HOP-92", "note": "Each line is one published result; not all experiments were run side by side."}
{"SMILES": "CCCCCCCCCCCCCCCCCCOc1ccc(CC(=O)OCC[N+]2(C)CCOCC2)cc1", "test": "SRB", "setting": "10 µM", "measurement": "growth inhibition", "result": "< 0%"}
{"SMILES": "CCCN1CCN(c2ccc3[nH]c(-c4ccc5[nH]c(-c6cc(OC)c(OC)c(OC)c6)nc5c4)nc3c2)CC1", "test": "SRB", "setting": "10 µM, 48 h", "measurement": "growth percent", "result": "70.5%"}
{"SMILES": "O=C(Nc1nnc2n3c(nc(-c4ccc(Cl)cc4)c1-2)SCC3=O)c1ccccc1", "test": "SRB", "setting": "10 µM, NCI60 single-dose screen", "how to read": "reference: untreated", "measurement": "cell growth", "result": "85.5%"}
{"SMILES": "O=c1ccn(Cc2cn(-c3c4ccccc4nc4ccccc34)nn2)c(=O)[nH]1", "test": "NCI60 single-dose screen", "setting": "10 µM", "measurement": "growth percentage", "result": "84.7%"}
{"SMILES": "O=C(Nc1nnc2[nH]c(=S)[nH]c(-c3ccc(Cl)cc3)c1-2)c1ccccc1", "test": "SRB", "setting": "10 µM, NCI60 single-dose screen", "how to read": "reference: untreated", "measurement": "cell growth", "result": "90.4%"}
{"SMILES": "CCCCCCCCCCCCCCCCCCOc1ccc(CC(=O)OCC[N+](C)(C)C)cc1", "test": "SRB", "setting": "10 µM", "measurement": "growth inhibition", "result": "< 0%"}
{"SMILES": "CCCN1CCN(c2ccc3[nH]c(-c4ccc5[nH]c(-c6ccc(OCC)c(OCC)c6)nc5c4)nc3c2)CC1", "test": "SRB", "setting": "10 µM, 48 h", "measurement": "growth percent", "result": "40.5%"}
{"SMILES": "Cc1cc2c(cc1C)[n+](Cc1ccc3ccccc3c1)cn2Cc1ccc2ccccc2c1.[Br-]", "test": "NCI60 five-dose screen", "measurement": "TGI", "result": "2530 nM"}
{"SMILES": "Cn1cncc1C1=CN(c2ncnc3[nH]cnc23)CCS1", "setting": "lung cancer", "measurement": "GI50", "result": "5800 nM"}
{"SMILES": "O=C(Nc1nnc2n3c(Cc4ccccc4)n[nH]c3nc(-c3ccc(Cl)cc3)c1-2)c1ccccc1", "test": "SRB", "setting": "10 µM, NCI60 single-dose screen", "how to read": "reference: untreated", "measurement": "cell growth", "result": "98.2%"}
{"SMILES": "C#C[C@@]1(O)[C@@H](CO)O[C@@H](n2ccc3c(N)ncnc32)[C@@H]1O", "test": "SRB", "setting": "NCI-60 screen", "measurement": "TGI", "result": "5560 nM"}
{"SMILES": "CCCCc1n(Cc2ccc3ccccc3c2)c2ccccc2[n+]1Cc1ccc2ccccc2c1.[Br-]", "test": "NCI60 five-dose screen", "measurement": "TGI", "result": "1350 nM"}
{"SMILES": "Cc1cc(=O)[nH]c(=O)n1Cc1cn(-c2c3ccccc3nc3ccccc23)nn1", "test": "NCI60 single-dose screen", "setting": "10 µM", "measurement": "growth percentage", "result": "67.6%"}
{"SMILES": "Cc1cc(-c2ccccc2)n(-c2nc(-c3ccc(Cl)cc3)c3c(NC(=O)c4ccccc4)nnc-3[nH]2)n1", "test": "SRB", "setting": "10 µM, NCI60 single-dose screen", "how to read": "reference: untreated", "measurement": "cell growth", "result": "93.7%"}
{"SMILES": "CCCCN1CCN(c2ccc3[nH]c(-c4ccc5[nH]c(-c6ccc(OCC)c(OCC)c6)nc5c4)nc3c2)CC1", "test": "SRB", "setting": "10 µM, 48 h", "measurement": "growth percent", "result": "81.3%"}
{"SMILES": "O=C(Nc1nnc2n3c(=S)[nH][nH]c3nc(-c3ccc(Cl)cc3)c1-2)c1ccccc1", "test": "SRB", "setting": "10 µM, NCI60 single-dose screen", "how to read": "reference: untreated", "measurement": "cell growth", "result": "86.3%"}
{"SMILES": "CN1CCN(c2ccc3[nH]c(-c4ccc5[nH]c(-c6ccc(C(F)(F)F)cc6)nc5c4)nc3c2)CC1", "test": "SRB", "setting": "10 µM, 48 h", "measurement": "growth percent", "result": "59.3%"}
{"SMILES": "CCCc1n(Cc2ccc3ccccc3c2)c2ccccc2[n+]1Cc1ccc2ccccc2c1.[Br-]", "test": "NCI60 five-dose screen", "measurement": "TGI", "result": "911 nM"}
{"SMILES": "CCCC(CCC)C(=O)OCc1cn(-c2c3ccccc3nc3ccccc23)nn1", "test": "NCI60 single-dose screen", "setting": "10 µM", "measurement": "growth percentage", "result": "73%"}
{"SMILES": "COc1ccc(OC)c(-c2nc3ccc(-c4nc5ccc(N6CCN(C)CC6)cc5[nH]4)cc3[nH]2)c1", "test": "SRB", "setting": "10 µM, 48 h", "measurement": "growth percent", "result": "77.1%"}
{"SMILES": "O=C1NC(c2ccccc2)(c2ccccc2)C(=O)N1Cc1cn(-c2cc3ccccc3oc2=O)nn1", "test": "NCI60 single-dose screen", "setting": "10 µM", "measurement": "growth percentage", "result": "76.6%"}
{"SMILES": "CCCCN1CCN(c2ccc3[nH]c(-c4ccc5[nH]c(-c6cc(OC)c(OC)c(OC)c6)nc5c4)nc3c2)CC1", "test": "SRB", "setting": "10 µM, 48 h", "measurement": "growth percent", "result": "50%"}
{"note": "Excerpt of the above:"}
{"SMILES": "CN1CCN(c2ccc3[nH]c(-c4ccc5[nH]c(-c6ccc(C(F)(F)F)cc6)nc5c4)nc3c2)CC1", "test": "SRB", "setting": "10 µM, 48 h", "measurement": "growth percent", "result": "59.3%"}
{"SMILES": "CCCc1n(Cc2ccc3ccccc3c2)c2ccccc2[n+]1Cc1ccc2ccccc2c1.[Br-]", "test": "NCI60 five-dose screen", "measurement": "TGI", "result": "911 nM"}
{"SMILES": "CCCC(CCC)C(=O)OCc1cn(-c2c3ccccc3nc3ccccc23)nn1", "test": "NCI60 single-dose screen", "setting": "10 µM", "measurement": "growth percentage", "result": "73%"}
{"SMILES": "COc1ccc(OC)c(-c2nc3ccc(-c4nc5ccc(N6CCN(C)CC6)cc5[nH]4)cc3[nH]2)c1", "test": "SRB", "setting": "10 µM, 48 h", "measurement": "growth percent", "result": "77.1%"}
